Measured values gathered from unrelated publications.
Lines come from different studies, so protocols differ. Values joined by “and” are separate records of one study, mostly repeats; a detail may differ. pIC50: −log10 of the molar value. Values after ≈ are worked out from the molar mass of the structure shown.

With CCc1nc2cc(C(F)(F)F)ccn2c1C(=O)NCc1ccc2oc(-c3ccc(OC(F)(F)F)cc3)nc2c1 the MIC90 was greater than 50 µM (Mycobacteroides abscessus; RFP fluorescence; ATCC 19977, RFP reporter).
CC(=O)OC[C@H]1O[C@@H](Sc2sc(C(=O)c3ccc(Br)cc3)c(N)c2-c2nc3ccccc3s2)[C@H](OC(C)=O)[C@@H](OC(C)=O)[C@@H]1OC(C)=O: “viral titre reduction” 80% (human alphaherpesvirus 1; plaque reduction; non-toxic concentration).
For Cc1c(CN(C)C(=O)/C=C/c2cnc3c(c2)CC(N)C(=O)N3)oc2ccccc12 (stereo not shown), the MIC was 32 µg/mL (≈ 82 µM) (Klebsiella pneumoniae; broth microdilution; AR-0113).
The MIC of CC1(C)[C@H](NC(=O)/C(=N\OCc2cc(=O)c(O)cn2O)c2csc(N)n2)C(=O)N1OS(=O)(=O)O is reported as 0.06 µg/mL (≈ 0.116 µM) (Enterobacter cloacae; agar dilution; ATCC 43560 susceptible).
Cc1nc2cc(OC(F)(F)F)ccn2c1C(=O)NCc1ccc2oc(-c3ccc(OC(F)(F)F)cc3)nc2c1 has an MIC90 of greater than 100 µM (Mycobacteroides abscessus; RFP fluorescence; ATCC 19977, RFP reporter).
Under “liver weight decrease”, CC(C)(C)NCC(SS(=O)(=O)O)c1ccccc1 (stereo not shown) is recorded as 28% (Schistosoma mansoni; perfusion day 44; infected Swiss Webster mice; 600 mg/kg single dose, 1056 h, dosed day 7 post-infection; relative to: vehicle control).
C=C[C@]1(C)C[C@@H](OC(=O)CSc2ccc(NC(=O)c3ccco3)cc2)[C@]2(C)[C@H](C)CC[C@]3(CCC(=O)[C@H]32)[C@@H](C)[C@@H]1O — result for “lung mycoplasma count”: 2.54 log10 CFU/mL and 2 log10 CFU/mL and 2.78 log10 CFU/mL and 3 log10 CFU/mL and 3.01 log10 CFU/mL and 3.23 log10 CFU/mL and 2.39 log10 CFU/mL (Mycoplasma gallisepticum; infected chickens, lung; intramuscular, 70 mg/kg daily x3, 72 h).
C=CC(=O)Nc1cccc(Cn2ncc3cnc(Nc4cnn(CCOC)c4)nc32)c1 — result for “percent of control”: 100% (CDC2L2 human; binding, KINOMEscan; 100 nM; lower = stronger binding).
For Nc1nc(-c2ccc(OC(F)(F)F)cc2)nc2[nH]nc(Nc3ccc(Cl)cc3)c12, the pIC50 was 5.72 (Human rhinovirus 8; cytopathic effect, inhibitor; HeLa).
CNCc1ccc2c(c1)C[C@H](CNC(=N)N)[C@H]2NC(=O)C(=O)Nc1ccc(Cl)c(F)c1 has an IC80 of greater than 100 µM (Human immunodeficiency virus 1; viral infection, Env pseudovirus; TZM-bl, 620345.c01 CRF01_AE).
Under “mosquito midgut oocyst incidence”, CCC1(CC)CC(=O)N(C2c3cc(C(=O)NC4c5ccccc5CC4O)ccc3OC2(C)COC)C(=N)N1 (stereo not shown) is recorded as “decreased” (Plasmodium falciparum; standard membrane feeding; NF54 stage V gametocytes; 25 nM).
The pIC50 of Cc1ccc(-c2nc(N)c3c(Nc4ccccc4)n[nH]c3n2)cc1 is reported as 5.56 (Human rhinovirus 8; cytopathic effect, inhibitor; HeLa).
CCc1nc2cc(C(F)(F)F)ccn2c1C(=O)NCc1ccc2oc(-c3ccc(Cl)cc3)nc2c1 has an MIC90 of greater than 50 µM (Mycobacteroides abscessus; RFP fluorescence; ATCC 19977, RFP reporter).
CC1(C)[C@H](NC(=O)/C(=N\OCCN)c2csc(N)n2)C(=O)N1OS(=O)(=O)O has an MIC of greater than 64 µg/mL (Enterobacter cloacae; agar dilution; CDC 1000654).
OC(Cn1cncn1)(Cn1cc(-[c-]2cccc2)nn1)c1ccc(F)cc1F.[Cl-].[Co+3].c1cc[cH-]c1 (racemic) has a motility inhibition of 16% (Trichuris muris; Worminator; adult males and females; 100 µM, day 1).
The germination rate of Cc1cccc2c1N(C(=O)n1ccnn1)CC2 is reported as 14.8% and 33.3% and 3% and 11.1% and 32.1% (Arabidopsis thaliana; kai2 mutant, seeds; 30 µM).
CCc1nc2ccc(Br)cn2c1C(=O)NCc1ccc2oc(-c3ccc(Cl)cc3)nc2c1 gave an MIC90 of greater than 50 µM (Mycobacteroides abscessus; RFP fluorescence; ATCC 19977, RFP reporter).
The pIC50 of Nc1nc(-c2ccccc2)nc2[nH]nc(Nc3ccc(O)cc3)c12 is reported as 4.35 (Human rhinovirus 8; cytopathic effect, inhibitor; HeLa).
CC1CC2(N=CCS2)C2(O)OC3CC4(C)C(CC3OC2O1)CC1OC12C4C(O)C(=O)C1(C)C(C3=CC(=O)OC3)CCC12O (stereo not shown) has an adult length of 9.91 mm (Oncopeltus fasciatus; diet, concentration not given).
For COc1c(NC(=O)c2ccc(NC(=O)c3ccc(NC(=O)[C@H](Cc4c[nH]nn4)NC(=O)c4ccc(NC(=O)/C(C)=C/c5ccc(O)cc5)cc4)cc3)cc2O)ccc(C(=O)O)c1O, the MIC was 8 µg/mL (≈ 9.36 µM) (Enterococcus faecium; broth microdilution; ciprofloxacin-sensitive).
Nc1c(C(=O)c2ccc(Br)cc2)sc(S)c1-c1nc2ccccc2s1 — result for “viral titre reduction”: 20% (human alphaherpesvirus 1; plaque reduction; non-toxic concentration).
Nc1nc(-c2ccccc2)nc2[nH]nc(Nc3cccnc3)c12 has a pIC50 of 5.37 (Human rhinovirus 8; cytopathic effect, inhibitor; HeLa).
Cc1ccc(C(=O)c2sc(S)c(-c3nc4ccccc4s3)c2N)cc1 — result for “viral titre reduction”: 10% (human alphaherpesvirus 1; plaque reduction; non-toxic concentration).
With C=C(NC(=O)c1csc(-c2nc3c(cc2O)-c2nc(cs2)C(=O)NC(C(C)O)C(=O)NC(=C(C)OC)c2nc(cs2)C(=O)NC2c4nc(cs4)C(=O)NC(COC(=O)c4c5c6c(cccc6n4O)COC(=O)C(OC4CC(C)(O)C(N(C)C)C(C)O4)C2OC5)c2nc-3cs2)n1)C(N)=O (stereo not shown) the ED50 was 0.98 mg/kg (Enterococcus faecium; -9 vancomycin-intermediate, mice, systemic infection; intravenous, 2 and 8 h post-infection, survival over 7 days).
COC1CN([C@H]2CC[C@H]([C@@]3(C)Oc4c(Cl)cc(C(=O)NCc5c(SC)cc(C)[nH]c5=O)c(C)c4O3)CC2)C1 — result for “log2 fold change”: 3.74 (RNA-seq, item: VLDLR; human, whole blood; dose not given, 24 h; relative to: pretreatment baseline).
Under “log2 fold change”, Cc1ncsc1-c1ccc(C(C)NC(=O)C2CC(O)CN2C(=O)C(NC(=O)CCCCCCCCCCN2CCCC(Nc3ncc(Cl)c(Nc4ccccc4S(=O)(=O)C(C)C)n3)C2)C(C)(C)C)cc1 (stereo not shown) is recorded as -1.55 (22Rv1; RNA-seq, item: SMCR8 mRNA; concentration not given; relative to: DMSO).
Nc1nc(-c2ccccc2)nc2[nH]nc(Nc3ccccc3F)c12 has a pIC50 of 4.86 (Human rhinovirus 8; cytopathic effect, inhibitor; HeLa).
Cc1nc2ccc(Br)cn2c1C(=O)NCc1ccc2oc(-c3ccc(Cl)cc3)nc2c1 has an MIC90 of greater than 50 µM (Mycobacteroides abscessus; RFP fluorescence; ATCC 19977, RFP reporter).
The downregulated genes of FC(F)(F)c1cccc(CNc2nc(NC3CCN(Cc4ccccc4)CC3)c3nc[nH]c3n2)c1 is reported as 506 genes (Cryptococcus neoformans; RNA-seq; 48 µg/mL, 3 h, log2 fold change below -1).
For CN(Cc1ccc(C2(C(F)(F)F)CCC2)cc1)Cc1cccc2ccccc12, the inhibition zone was 0 mm (Trichophyton rubrum; microbial growth, disc diffusion; ATCC28188; 0.001 µg/mL, 6 days).
CC(C)(O/N=C(\C(=O)N[C@@H]1C(=O)N(OS(=O)(=O)O)C1(C)C)c1nsc(N)n1)C(=O)O has an MIC of greater than 64 µg/mL (Enterobacter cloacae; agar dilution; CDC 1000654).
Nc1nc(-c2ccccc2)nc2[nH]nc(Nc3cc(F)c(F)c(F)c3)c12 has a pIC50 of 5.30 (Human rhinovirus 8; cytopathic effect, inhibitor; HeLa).
For CC(=O)O[C@@H]1[C@@H](OC(C)=O)[C@H](Sc2sc(C(=O)c3ccc(Br)cc3)c(N)c2-c2nc3ccccc3s2)OC[C@@H]1OC(C)=O, “viral titre reduction” read 40% (human alphaherpesvirus 1; plaque reduction; non-toxic concentration).
CC[C@H](C)[C@@H]1NC(=O)[C@@H]([C@@H](C)O)NC(=O)CNC(=O)[C@H](CC(=O)O)NC(=O)CNC(=O)[C@H](CC(=O)O)NC(=O)CNC(=O)[C@H]2CCCCN2C(=O)[C@@H](NC(=O)[C@H](CC(=O)O)NC(=O)/C=C/CCCCCCCCCC(C)C)CNC(=O)[C@@H]2CCCN2C1=O has an MIC of 2 µg/mL (≈ 1.6 µM) (Enterococcus; broth microdilution; VRE 155, Mueller-Hinton broth, Mg2+ 10 mg/L; 16 h, added: Ca2+ 10 mM).
Nc1nc(-c2ccccc2)nc2[nH]nc(Nc3ccccc3C(F)(F)F)c12 has a pIC50 of 4.60 (Human rhinovirus 8; cytopathic effect, inhibitor; HeLa).
CC(C)[C@H]1NC(=O)[C@H](Cc2ccccc2)NC(=O)[C@@H](C(C)C)NC(=O)[C@@H](C)NC(=O)[C@H](CO)NC(=O)[C@@H](Cc2c[nH]c3ccccc23)NC(=O)[C@@H](CO)NC1=O has an MIC90 of greater than 100 µM (Mycolicibacterium smegmatis).
For COC1C=COC2(C)Oc3c(C)c(O)c4c(c3C2=O)C2=NC3(CCN(CC(C)C)CC3)NC2=C(NC(=O)C(C)=CC=CC(C)C(O)C(C)C(O)C(C)C(OC(=O)Nc2cnccn2)C1C)C4=O (stereo not shown), the IC90 was 214 nM (Mycobacteroides abscessus; bacterial growth; subsp. abscessus K21 clinical isolate).
Cc1nc2cc(OC(F)(F)F)ccn2c1C(=O)NCc1ccc2oc(-c3ccc(Cl)cc3)nc2c1 has an MIC90 of greater than 100 µM (Mycobacteroides abscessus; RFP fluorescence; ATCC 19977, RFP reporter).
With CSc1ccc(Nc2n[nH]c3nc(-c4ccccc4)nc(N)c23)cc1 the pIC50 was 5.05 (Human rhinovirus 8; cytopathic effect, inhibitor; HeLa).
O=[N+]([O-])c1cc(Br)cc([N+](=O)[O-])c1NS(=O)(=O)c1ccc(Br)cc1 has a germination rate of greater than 90% (Arabidopsis thaliana wild type; 10 µM).

A few entries again:
For Nc1nc(-c2ccc(OC(F)(F)F)cc2)nc2[nH]nc(Nc3ccc(Cl)cc3)c12, the pIC50 was 5.72 (Human rhinovirus 8; cytopathic effect, inhibitor; HeLa).
CC1CC2(N=CCS2)C2(O)OC3CC4(C)C(CC3OC2O1)CC1OC12C4C(O)C(=O)C1(C)C(C3=CC(=O)OC3)CCC12O (stereo not shown) has an adult length of 9.91 mm (Oncopeltus fasciatus; diet, concentration not given).
CCc1nc2ccc(Br)cn2c1C(=O)NCc1ccc2oc(-c3ccc(Cl)cc3)nc2c1 gave an MIC90 of greater than 50 µM (Mycobacteroides abscessus; RFP fluorescence; ATCC 19977, RFP reporter).
